Published values from different studies.
Compare with care: the assays were run in different laboratories.
Target: Death-associated protein kinase 2 (DAPK2, Homo sapiens, UniProt Q9UIK4)

With COc1c(Cl)cccc1Nc1c(-c2ccncc2C#C[C@@]2(C)CCCN2C(=O)/C=C/CN(C)C)[nH]c2c1C(=O)NCC2 the remaining binding was 92% (binding, competition with immobilised ligand; 3 µM).
For Nc1ncc2c(n1)-c1c([nH]c3ccc(C4=CCOCC4)cc13)CCC2, the remaining binding was 100% (binding, competition with immobilised ligand; 1 µM).
The remaining activity of COc1c(OCCCN2CCOCC2)ccc2c1N=C(NC(=O)c1cnc(N)nc1)N1CCN=C21 is reported as 93% (kinase activity, inhibitor; 1 µM; relative to: untreated control).
Nc1ncc(-c2cc(-c3cnn(CC(F)(F)F)c3)ncc2F)nc1C(=O)NC1CNCC(F)C1 (stereo not shown) has a remaining activity of 93.5% (enzyme activity; 1 µM; relative to: DMSO control).
For CCN1CCN(Cc2ccc(C(=O)Nc3ccc(C)c(NCc4cnc5[nH]ccc5c4OC)c3)cc2C(F)(F)F)CC1, the remaining binding was 69% (binding, competition with immobilised ligand; 1 µM).
O=C(Cc1ccc(OCc2ccccc2)cc1)NC1(C(=O)O)CCN(C(=O)c2ccc(-c3cccc(Cl)c3)cc2)CC1: “activity vs control” 106% (enzyme activity, inhibitor; 10 µM).
CNC1C[S+]2CC[S+]3CC[S+](C1)[Ru-4]321([N]=C=S)[n]2c3ccc(OC)cc3c3c4c(c5cc(F)c[n+]1c5c32)C(=O)NC4=O (stereo not shown) has a remaining binding of 5.8% (KinomeScan; 0.1 µM; relative to: untreated).
For C=CC(=O)N1CCc2ccc(-n3c(=O)ccc4cnc5ccc(-c6cnn(C)c6)cc5c43)cc21, the remaining binding was 100% (KINOMEscan; 1 µM; relative to: DMSO control).
COc1ccc(NC(=O)Nc2ccc3c(c2)C(=O)N(C(C)CO)CC(C)C(CN(C)Cc2ccc4c(c2)OCO4)O3)cc1 (stereo not shown) gave a remaining activity of 95% (kinase activity, KinaseProfiler; 0.03 µM, species human; relative to: control).
NC(=O)C[C@H]1CCc2sc3ncnc(O[C@H]4CC[C@H](N5CCOCC5)CC4)c3c21 gave an inhibition of -3% (enzyme activity, inhibitor; 10 µM).
With C=CC(=O)N1CCCC(n2c(=O)c3ncccc3n(Cc3ccc(Oc4ccccc4)cc3)c2=O)C1 (stereo not shown) the remaining binding was 98% (cell-free assay, competition with immobilised ligand; 1 µM).
CN1CC[C@@H](COc2cnc(C#N)cc2-c2ccn3nc(NC(=O)C4CC4)cc3c2)C1 gave an inhibition of 1% (enzyme activity, inhibitor; 1 µM).
The inhibition of CCn1cc(C(=O)O)c(=O)c2c(N)c(F)c(NC3CCCCC3)cc21 is reported as 11% (kinase activity; 0.1 µM, added: ATP at Km).
